Assay results collected from several papers.
Protocols differ between the studies behind these lines. Several values in a cell are separate wells, animals, samples, runs or records. ± gives the spread as reported.
Target: D(3) dopamine receptor (DRD3, Homo sapiens, UniProt P35462)
UniProt P35462, sequence (whole entry, looked up): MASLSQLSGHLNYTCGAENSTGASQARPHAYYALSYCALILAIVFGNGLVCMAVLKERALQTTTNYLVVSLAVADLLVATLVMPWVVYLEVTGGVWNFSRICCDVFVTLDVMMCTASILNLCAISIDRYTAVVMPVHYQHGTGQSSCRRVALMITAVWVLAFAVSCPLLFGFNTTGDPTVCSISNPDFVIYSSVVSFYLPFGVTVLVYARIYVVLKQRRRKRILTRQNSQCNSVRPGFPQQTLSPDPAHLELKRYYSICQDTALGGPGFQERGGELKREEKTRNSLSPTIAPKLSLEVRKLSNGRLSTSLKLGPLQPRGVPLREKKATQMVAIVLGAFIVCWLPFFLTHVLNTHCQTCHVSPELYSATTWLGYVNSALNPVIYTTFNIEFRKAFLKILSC

| Structure (SMILES) | test | test system | setting | quantity | value |
| --- | --- | --- | --- | --- | --- |
| Cn1c(=O)c(SCC(=O)NCCN2CCC(Cc3ccccc3)CC2)nc2ccccc21 | cell-free assay |  |  | Ki | 0.641 µM |
| C[C@H]1CN(C2CC2)C[C@H]1NC(=O)c1cnc2c(F)ccc(F)c2c1 | ligand displacement, radioligand |  | cell membranes | Ki | > 10 µM |
| CCc1c(Cl)cccc1N1CCN(C[C@@H](F)CCNC(=O)c2cc3ccccc3[nH]2)CC1 | mitogenesis, agonist, [3H]thymidine incorporation | CHO cells expressing D3 receptor |  | EC50 | 0.0076 ± 0.0039 µM |
| Cc1ccc(C(=O)NC[C@@H](C)N2CCCC2)cc1I | ligand displacement, radioligand |  | cell membranes | Ki | > 10 µM |
| COc1ccc(-c2csc3ncnc(NCCCN4CCN(c5ccccc5)CC4)c23)cc1 | cell-free assay |  |  | Ki | 3.07 µM |
| Clc1ccc(-n2cc(CNC[C@@H]3CCCOC3)nn2)c(Cl)c1 | ligand displacement, radioligand |  | cell membranes | Ki | > 10 µM |
| NC(CO)CCc1ccccc1Cl (racemic) | GTPγS binding, agonist, radiometric |  | cell membranes | EC50 | 3.5 µM and 3.46 µM |
| Cc1cccc(NC(=O)CN2CCC(c3ccccc3)CC2)c1 | cell growth or viability, thymidine uptake |  |  | EC50 | > 10 µM |
| Cc1cc2c(c(O)c1O)C(=O)c1c(O)cc(O)cc1C2=O | cAMP, agonist, TR-FRET |  |  | EC50 | 56.8 µM |
| CC1(C)C2=C3C=C4C5=[N+](CCC4OC3CCN2c2ccc(S(=O)(=O)[O-])cc21)c1ccc(C(=O)NCCCCOc2ccc(C(=O)CCCN3CCC(O)(c4ccc(Cl)cc4)CC3)cc2)cc1C5(C)C (stereo not shown) | ligand displacement, radioligand |  | cell membranes | Ki | 0.068 µM |

For quick reference, copied from above:
| Structure (SMILES) | test | test system | setting | quantity | value |
| --- | --- | --- | --- | --- | --- |
| CC1(C)C2=C3C=C4C5=[N+](CCC4OC3CCN2c2ccc(S(=O)(=O)[O-])cc21)c1ccc(C(=O)NCCCCOc2ccc(C(=O)CCCN3CCC(O)(c4ccc(Cl)cc4)CC3)cc2)cc1C5(C)C (stereo not shown) | ligand displacement, radioligand |  | cell membranes | Ki | 0.068 µM |
